Published values gathered from unrelated publications.
Parts stem from different laboratories: compare values within a part only.

Sample 1
Target: RING finger protein unkempt homolog, zinc fingers 1-6, GST-SBP tag (UNK, Homo sapiens, UniProt Q9C0B0, residues 30-357)
Chain of UniProt Q9C0B0 (30-357, looked up): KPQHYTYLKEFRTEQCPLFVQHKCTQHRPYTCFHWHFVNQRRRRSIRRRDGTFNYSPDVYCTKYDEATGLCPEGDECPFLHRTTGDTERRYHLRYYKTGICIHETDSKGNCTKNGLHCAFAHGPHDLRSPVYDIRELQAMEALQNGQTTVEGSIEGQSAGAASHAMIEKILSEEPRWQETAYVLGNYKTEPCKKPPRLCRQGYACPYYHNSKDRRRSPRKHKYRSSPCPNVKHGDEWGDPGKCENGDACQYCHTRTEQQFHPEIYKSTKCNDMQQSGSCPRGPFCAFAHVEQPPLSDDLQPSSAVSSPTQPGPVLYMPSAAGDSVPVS
Method: RNA Bind-n-Seq
Form: RNA
Sample: in vitro
Concentration: not given
Setting: RNA with constant flanks, human and mouse sites, ends assumed
Baseline: input RNA pool
Direction: higher = stronger binding
The bound/input enrichment of `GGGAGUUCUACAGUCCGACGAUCCCUGAUCAGCUGGUGAACAGAUCCAUUCAGCAAGGUUUCUGCUUUAAUAUUCUCUGUGUGGGGGAAACUGGAAUUGGAAAAUCAACACUGAUUGACACAUUGUUUAAUACUAAUUUUGAACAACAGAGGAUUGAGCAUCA` is reported as 0.239 ratio.
With `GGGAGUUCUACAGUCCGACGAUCGUUAUUCUUGUAUGUAAUCCUGUGGCUUAACGACUUUUCCCUCCUCACCCUGCACUUCUCUAGCUCUCUGUUCCCUCUCCAUGGCUCUGACUCUUCUUAUUCUUGUGCUAAGACUUGUAGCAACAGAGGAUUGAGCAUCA` the bound/input enrichment was 1.04 ratio.
The bound/input enrichment of `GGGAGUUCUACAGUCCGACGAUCCGCCUGCCGGCAGAAUGUCCCUGGCUGCUUAUUGCGUCAUCUGUUGCAGAAGAAUAGGAACCUCUACUUCCCCACCAAAAAGUGGCACACACUGGAGAGAUAUCAGAAAUAUAAUAAAGUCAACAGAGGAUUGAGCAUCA` is reported as 0.286 ratio.
`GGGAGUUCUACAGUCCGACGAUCUGUUGUACACCUAGAAUCUUUGUGAAUAAUGUGAGGCCAGUUCUUCCAUAAGGAAGGCUGGUUAUGGAUAUUCAUAAGGUUAUUUCAAAGUUAAUAAAGACAAAGUGGCAACUGUAGAAACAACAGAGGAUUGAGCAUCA` has a bound/input enrichment of 0.305 ratio.
`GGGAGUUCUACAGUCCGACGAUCGCUGUCUGAACUGAACAGACCGAAGAGAUGUGCUAGAGAGAAGCCGCCUCCACAGUCACCCAUUUCAUUGCUGUCUACGAAAGAGACGUGAGACUCACACGCUGUUCUCGCUUUCUCCCCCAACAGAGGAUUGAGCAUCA` has a bound/input enrichment of 0.165 ratio.
The bound/input enrichment of `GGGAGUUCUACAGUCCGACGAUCUACUUGUACUUUCUUGACUGAUAGUCAUCUUGACUUAAGUAGUUUGAGUAGCCUUUUAGGAAUUACUUGUAAAUAGCCUUGUAAAUAGAGCAUUUAACCAUAUGUACCCUUCCUAGCCUCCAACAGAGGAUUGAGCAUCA` is reported as 1.55 ratio.

Sample 2
Target: Histone acetyltransferase KAT6A, both winged helices, GST fusion (KAT6A, Homo sapiens, UniProt Q92794, residues 1-181)
Method: protein binding microarray
Form: double-stranded DNA, one strand shown
Sample: in vitro
Concentration: not given
Setting: 8-mer, flanks averaged, mean of 2 arrays, mostly near background
Baseline: not given
Direction: higher = stronger binding
Residues (chain): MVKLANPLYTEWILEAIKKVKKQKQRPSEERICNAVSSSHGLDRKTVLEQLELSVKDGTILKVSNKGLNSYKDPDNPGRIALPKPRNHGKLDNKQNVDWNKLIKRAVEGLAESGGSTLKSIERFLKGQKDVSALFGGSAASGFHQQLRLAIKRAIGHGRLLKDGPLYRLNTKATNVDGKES
`TCGGTTCA` has an E-score of 0.104.
`CATCTCAG` has an E-score of -0.124.
With `TAAGCCTA` the E-score was -0.0149.
`ATGTTTCG` has an E-score of 0.0856.
`GTATGCAC` has an E-score of -0.0678.
`GACTGTAA` has an E-score of -0.00601.
`TAGCGGGA` has an E-score of 0.168.

Sample 3
Target: Interferon regulatory factor 7, full length, phosphomimetic (IRF7, Homo sapiens, UniProt Q92985, residues 1-503, S101K/S471D/S472D/S475D/S476D/S477D/S483D/S484D/S487D)
Chain of UniProt Q92985 (whole entry, unmodified, looked up): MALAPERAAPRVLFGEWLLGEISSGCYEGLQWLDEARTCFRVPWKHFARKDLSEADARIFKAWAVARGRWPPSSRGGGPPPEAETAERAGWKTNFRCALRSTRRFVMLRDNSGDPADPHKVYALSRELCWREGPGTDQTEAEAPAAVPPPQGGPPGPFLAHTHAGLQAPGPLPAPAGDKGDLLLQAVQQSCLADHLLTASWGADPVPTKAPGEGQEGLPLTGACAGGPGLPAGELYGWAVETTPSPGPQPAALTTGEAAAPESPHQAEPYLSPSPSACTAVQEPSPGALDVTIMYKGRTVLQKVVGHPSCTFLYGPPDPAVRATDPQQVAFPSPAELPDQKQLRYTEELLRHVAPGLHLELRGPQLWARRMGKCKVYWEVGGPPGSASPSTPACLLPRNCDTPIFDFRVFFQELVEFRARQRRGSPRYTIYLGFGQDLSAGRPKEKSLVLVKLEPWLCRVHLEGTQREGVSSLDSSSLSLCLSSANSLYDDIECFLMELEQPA
Method: protein-binding microarray
Form: double-stranded DNA, one strand shown
Sample: in vitro
Concentration: 250 nM
Setting: 60-bp whole probe
Added: salmon DNA 0.4 mg/ml
Baseline: random background probes
Direction: higher = stronger binding
Shared flanks, not repeated: GCCTAGCAC … GTCTTGATTCGCTTGACGCTGCTG
For `TTTGATTTCAGACTGGATTAGTGCTAG`, the log fluorescence was 0.139 z-score.
With `TTAGGTATCCACTATCGGTTAGTGCTA` the log fluorescence was -0.267 z-score.
For `TTAGGACGGGGTATCGGTTAGTGCTAG`, the log fluorescence was 0.516 z-score.
`TTAGAGCTGGGGTATCGATTAGTGCTA` gave a log fluorescence of -0.943 z-score.
The log fluorescence of `TTAGATCTTAGACTGGATTAGTGCTAG` is reported as -0.267 z-score.
`TGAGGTATCCTACTGCTTTAGTGCTAG` gave a log fluorescence of -0.515 z-score.
`CTGGCTATTTTATATGCTATGGTGCTA` gave a log fluorescence of -0.319 z-score.
With `TTAGGTATCGGTGTCGGTTAGTGCTAG` the log fluorescence was 0.223 z-score.
The log fluorescence of `TTAGGACGGCTTATCCTTTAGTGCTAG` is reported as -0.251 z-score.

Single results of other studies
With `PhoQ, residues 284 288 289 292 302 303 SVHLDV` the fold induction was 7.03 (PhoP, residues 12 14 15 18 19 LHHSG (Escherichia coli, UniProt P23836); Sort-seq, measured: YFP reporter; E. coli; PhoQ-PhoP variant library, added: 10 µM Mg2+; baseline: high Mg2+ state, higher = stronger signaling).

Some of these lines once more (sample 1):
The bound/input enrichment of `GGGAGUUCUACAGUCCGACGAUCCGCCUGCCGGCAGAAUGUCCCUGGCUGCUUAUUGCGUCAUCUGUUGCAGAAGAAUAGGAACCUCUACUUCCCCACCAAAAAGUGGCACACACUGGAGAGAUAUCAGAAAUAUAAUAAAGUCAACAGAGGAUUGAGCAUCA` is reported as 0.286 ratio.
`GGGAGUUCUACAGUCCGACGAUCUGUUGUACACCUAGAAUCUUUGUGAAUAAUGUGAGGCCAGUUCUUCCAUAAGGAAGGCUGGUUAUGGAUAUUCAUAAGGUUAUUUCAAAGUUAAUAAAGACAAAGUGGCAACUGUAGAAACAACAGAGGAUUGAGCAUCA` has a bound/input enrichment of 0.305 ratio.
`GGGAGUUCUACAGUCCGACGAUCGCUGUCUGAACUGAACAGACCGAAGAGAUGUGCUAGAGAGAAGCCGCCUCCACAGUCACCCAUUUCAUUGCUGUCUACGAAAGAGACGUGAGACUCACACGCUGUUCUCGCUUUCUCCCCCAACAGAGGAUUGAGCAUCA` has a bound/input enrichment of 0.165 ratio.
